Results collected from several papers.
Every numbered part comes from another study and shows a few of its results, in no order. Changes are numbered by the printed parent chain.

Block 1 — method: protein binding microarray; molecule type: double-stranded DNA, one strand shown; medium: in vitro; concentration: not given; baseline: not given; direction: higher = stronger binding; quantity: E-score
Target: Histone acetyltransferase KAT6A, winged helix 1, GST fusion (KAT6A, Homo sapiens, UniProt Q92794, residues 1-85)
Setting: 8-mer, flanks averaged, mean of 2 arrays, mostly near background
Target sequence (chain): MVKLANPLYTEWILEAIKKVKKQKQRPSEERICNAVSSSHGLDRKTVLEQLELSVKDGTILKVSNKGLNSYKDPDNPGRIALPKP
ACCGACAC: 0.0206
ACATTCGT: -0.178
CAAGCTAA: -0.229
TCGGGTCA: 0.259
CTGCCCCC: -0.0497
ACTGGGGA: -0.2
CCGCGAAA: 0.34
CGACTTTC: 0.026
GGGGACCA: -0.0585
CCTGATAG: -0.103
GACCCCTC: -0.152
TCGCAAAA: 0.0486

Block 2 — method: DHFR PCA, deep sequencing; medium: yeast; together with: (+)-ABA 710 µM; baseline: wild-type fitted maximum; direction: higher = stronger binding; quantity: relative binding score
Target: ABI1, truncated, D143A, DHFR fusion (Arabidopsis thaliana)
Setting: methotrexate growth selection, single substitutions
Starting sequence: PYL1, truncated, DHFR fusion (Arabidopsis thaliana); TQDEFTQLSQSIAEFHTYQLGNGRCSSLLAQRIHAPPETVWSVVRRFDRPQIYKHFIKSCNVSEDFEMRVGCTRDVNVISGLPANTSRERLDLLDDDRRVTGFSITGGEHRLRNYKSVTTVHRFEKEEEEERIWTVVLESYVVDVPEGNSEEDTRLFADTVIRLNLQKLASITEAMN
Q31S: 72.8%
S104N: 57.9%
Y141P: -8.96%
N177S: 102%
S104T: 109%
S26N: 93.6%
E131Y: 101%
N114V: -2.83%
N77V: 103%
D92Y: 81.9%
V40W: -10.3%
H55F: 98.2%
T119V: 95.3%
S87E: 10.3%
V145R: 87%

Block 3 — method: protein-binding microarray; molecule type: double-stranded DNA, one strand shown; medium: in vitro; concentration: not given; direction: higher = stronger binding; quantity: E-score
Target: Max-binding protein MNT, bHLH-zipper, MAX partner unstated (MNT, Homo sapiens, UniProt Q99583, residues 220-300)
Setting: k-mer, scored over probes, only values ≥0.25
Residues (chain): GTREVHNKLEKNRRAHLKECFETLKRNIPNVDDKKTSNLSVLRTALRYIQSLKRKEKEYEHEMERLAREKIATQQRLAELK
CAAGCACG: 0.379
CGTGGCAC: 0.414
ATGTGTGA: 0.305
ACCACGTC: 0.256
AAACACAT: 0.311
ATGTGTCC: 0.324
ACGCATTG: 0.256
GCCCACCC: 0.414
ATGTGTCA: 0.334
CCACATGA: 0.435
AGGCACGC: 0.394
GCGGGCAC: 0.258
CCCCACAC: 0.282

Block 4 — method: RNA Bind-n-Seq; molecule type: RNA; medium: in vitro; concentration: not given; baseline: input RNA pool; direction: higher = stronger binding; quantity: bound/input enrichment
Target: RING finger protein unkempt homolog, zinc fingers 1-6, GST-SBP tag (UNK, Homo sapiens, UniProt Q9C0B0, residues 30-357)
Setting: RNA with constant flanks, human-mouse chimeric sites, ends assumed
All sequences stand within: GGGAGUUCUACAGUCCGACGAUC … CAACAGAGGAUUGAGCAUCA
Target sequence (chain): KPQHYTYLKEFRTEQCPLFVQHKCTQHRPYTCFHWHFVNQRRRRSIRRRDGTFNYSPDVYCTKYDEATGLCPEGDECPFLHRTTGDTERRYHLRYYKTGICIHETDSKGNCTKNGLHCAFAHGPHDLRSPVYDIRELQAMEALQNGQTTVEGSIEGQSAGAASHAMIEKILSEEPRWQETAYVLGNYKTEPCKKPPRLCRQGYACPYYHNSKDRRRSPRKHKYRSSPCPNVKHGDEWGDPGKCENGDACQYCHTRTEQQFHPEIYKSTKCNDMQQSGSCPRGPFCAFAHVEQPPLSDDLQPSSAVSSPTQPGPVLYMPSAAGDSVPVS
UUAAUCCCCUUUACUGCUCCCCCACUUCUCAUGGUAAUAACAAAGUCUUAUAUUCCCAUAUUAGCUUUCACUCAGAUGGCUUAUGGAGCCGGUUUCCUAGCUUUCUUGGGAGGGAUCAGA: 0.326 ratio
UAAAUUAGGGCUGCCGUUUUCUGUUUCUCCCUGGGCUGCGGAAAGCCAGAAGAUUUUAUCUAGCUUAAACCAGGCUGCUGGUGUUCCCUCCCUCCCGCCACGAGGGUGUUUUUGGCUGCA: 0.683 ratio
AUUGUUGAAGCGAAUCCACUUUUAGAAGCAUUUGGAAAUGCAAAGACUGUUCGCAACAAUAAUAGCAGUCGAUUUGGAAAAUUUGUAGAAAUACAUUUCAAUGAAAAGAGCUCAGUUGUU: 0.155 ratio
UUACCCGAGAACGAGGAUGAGCUGGAGAGCACCAACAGACGCUAUACCAAGAGGGACUGCAGCACUUUCCUCAGAACUAGUGAGACGGGCAUCGUGGACCAGGUCAUGGUCACUCUCAAC: 0.228 ratio
UCUUAACUUAUUCAUUUCUUAUUUUUAUAUAGCUAGAUAAAUAUUGUUAGUCUUAGACAAUAGCUCACAUUUUUUGAGAAGCAUGCCCUCCCUGUCCAUUUGUCUUACAAUAACACUCAG: 92.2 ratio
CACAGAGGAGAUCUGCUGUUCCUCACAAAUUUCCGGGAGGACCCCAUCAGAGCUGGUGAAAUAGUUGUUUUUAAGGUUGAAGGAAGAGACAUUCCAAUAGUUCACAGAGUAAUCAAGGUU: 2.87 ratio
GAGUCGAGCAAACUUGAAACAAUUCGUUAUCUUGCAGCCUCAGUGUUCACUUGCUUGGCGAUAGCAUAUUGGGAUUUUAUAGAUUCUAAGGAGAACUGACGAUGAUGCUGCCGCUGCUGC: 0.448 ratio
GUGUCCUGCUUUCAACUAUCACUGAGGAGGCAUCUCUACUGUUCUGUGAGCAUCAGGACUGUAGCGCUGUGUCACCACAUGAGAGUUCAGAAGCAGCCUUUCUGUGGAGAGUGAGAAUGA: 0.0685 ratio
